Measured values collected from several papers.
Compare with care: the assays were run in different laboratories. Several values in a cell are separate wells, animals, samples, runs or records. ± marks the error that the study gave.

| SMILES | assay | system | conditions | how to read | quantity | value |
| --- | --- | --- | --- | --- | --- | --- |
| CC(C)(c1ccc(O)cc1)c1ccc(O)cc1 | ultrafiltration | cow milk whey | 200 nM nominal in whole milk |  | dose fraction in permeate | 18.9% |
| CCc1ccc(CC/C=C/c2ccc3c(c2)C(=O)CC3)cc1 |  | Sprague-Dawley rat, male, blood | oral, 120 mg/kg/day, 14 days |  | MCV | 63.2 fL |
| O=C(O)CCC(CP(=O)(O)O)C(=O)O (stereo not drawn) |  | rat, processed derivatized plasma | 8 µg/mL, 18 h, 10 °C, autosampler stability |  | measured concentration | 8.06 ± 0.45 µg/mL |
| C[C@H]1C[C@@H](N2C(=N)N[C@](C)(c3cccc(NC(=O)c4cccc(C#N)c4)c3Cl)CC2=O)CCO1 |  | rat | 1000 mg/kg, every other day |  | lymphocytes count change | 42% |
| CC(C)CC(=O)OC[C@H]1O[C@@](C#N)(c2ccc3c(N)ncnn23)[C@H](O)[C@@H]1O |  | human plasma | 0.9 µM |  | fraction bound | 0.807 |
| Nc1ncnc2c1ncn2[C@@H]1O[C@@H]2COP(=O)([S-])O[C@@H]3[C@H](O)[C@@H](COP([O-])(=S)O[C@H]2[C@H]1O)O[C@H]3n1cnc2c(N)ncnc21.[Na+].[Na+] (stereo partly drawn) |  | non-tumor-bearing mice, serum | intravenous, 1 mg/kg, toxicity study |  | total bile acids | 7.69 ± 1.33 µmol/L |
| CC(=O)c1c(C)c2cnc(Nc3ccc(C4CCN(CCS(C)(=O)=O)CC4)cn3)nc2n(C2CCCC2)c1=O |  | human | oral, dose not given, steady state, continuous dosing, range over doses |  | Tmax | 0.5 to 3 h |
| COc1ccc2nc3cc(Cl)ccc3c(Nc3cc(CN4CCCC4)c(O)c(CN4CCCC4)c3)c2n1 |  | mouse, blood | intraperitoneal, 57 mg/kg |  | eosinophil count | 0.98 10⁹/L |
| NC(=O)N1c2ccccc2C=Cc2ccccc21 | PAMPA |  | 200 µM, 5 h, pH 7.4 |  | membrane retention | 10.2% |
| [Cl][212Pb][Cl] |  | athymic mice, C4-2 xenograft, liver | intravenous, 2 h, 212Pb-labelled |  | tissue uptake | 8.54 ± 1.54 %ID/g |
| N#Cc1ccc(N2C[C@H](N)C[C@H](C(F)(F)F)C2)c2cccnc12 |  | dog | GLP toxicity study |  | NOAEL | 5 mg/kg |
| COc1ccc([C@@H](O)c2cc(-c3ncnc4cc(N5CCOCC5)ccc34)c(F)cc2Cl)nn1 |  | patients, advanced solid tumours | oral, 300 mg twice daily, treatment-emergent, together with: avelumab |  | hypotension incidence | 2% |
| C[C@@H](NC(=O)N1C(=O)[C@H](Cc2ccnc(N)c2)[C@H]1C(=O)O)C1CCCCC1 |  | healthy adult Chinese volunteers | continuous intravenous infusion, 1.0 mg/kg/h, 5-day infusion, CTCAE 5.0 grading |  | incidence of albuminuria | 12.5% |
| CC(C)C[C@H](NC(=O)[C@H](Cc1ccccc1)NC(=O)[C@H](Cc1ccccc1)NC(=O)Cc1ccc(-c2ccccc2)cc1)C(=O)N[C@@H](CCCCN)C(=O)N[C@@H](CCCNC(=N)N)C(=O)N[C@H](C(=O)N[C@@H](Cc1c[nH]c2ccccc12)C(=O)N[C@@H](CCCCN)C(=O)N[C@@H](CCCNC(=N)N)C(=O)O)C(C)C |  | monkey liver microsomes |  |  | intrinsic clearance | 763 mL/min/kg |
| O=C(O)C(O)(c1cccs1)c1cccs1 | item: metabolite | human, plasma | oral, 2 mg once daily, 5 days, median |  | dose-normalised free AUC(0-24) | 0.213 (ng·h/mL)/mg |
| Cn1cc(-c2nc(N[C@@H]3CCCC[C@@H]3N)c(F)c3c2C(=O)NC3)cn1 | item: Hemoptysis | patients with relapsed or refractory AML | oral, 80 mg twice daily |  | hemorrhagic adverse events | 17% |
| COc1cc2c(Oc3ccc4[nH]c(C)cc4c3F)ccnc2cc1OCC1(N)CC1 |  | paediatric refractory sarcoma patients | 10 mg |  | Proteinuria incidence | 25% |

| SMILES | assay | system | conditions | how to read | quantity | value |
| --- | --- | --- | --- | --- | --- | --- |
| O=C1Nc2cc3[nH]nc(-c4ccncc4)c3cc2CN1Cc1ccccc1 | item: blood ALP increased | patients with advanced solid tumours | intravenous, dose not given, schedules 1 and 2 |  | patients with grade ≥3 TEAE | 6% |
| CC[C@H](C)[C@H](NC(=O)[C@H](Cc1ccccc1)NC(=O)[C@H](CCC(=O)O)NC(=O)[C@H](CCCNC(=N)N)NC(=O)[C@H](C)NC(=O)[C@H](C)NC(=O)[C@H](CCC(N)=O)NC(=O)[C@H](CCC(=O)O)NC(=O)[C@H](CCC(=O)O)NC(=O)[C@H](CC(C)C)NC(=O)[C@H](Cc1ccc(O)cc1)NC(=O)[C@H](CO)NC(=O)[C@H](CO)NC(=O)[C@@H](NC(=O)[C@H](CC(=O)O)NC(=O)[C@H](CO)NC(=O)[C@@H](NC(=O)[C@H](Cc1ccccc1)NC(=O)[C@@H](NC(=O)CNC(=O)[C@H](CCC(=O)O)NC(=O)[C@H](C)NC(=O)CCc1cnc[nH]1)[C@@H](C)O)[C@@H](C)O)C(C)C)C(=O)N[C@@H](C)C(=O)N[C@@H](Cc1c[nH]c2ccccc12)C(=O)N[C@@H](CC(C)C)C(=O)N[C@H](C(=O)N[C@@H](CCCNC(=N)N)C(=O)NCC(=O)N[C@@H](CCCNC(=N)N)C(=O)N[C@@H](CCCCNC(=O)COCCOCCNC(=O)COCCOCCNC(=O)CC[C@H](NC(=O)CCCCCCCCCCCCCCCCC(=O)O)C(=O)O)C(=O)NCC(=O)NCC(=O)N[C@@H](CO)C(=O)N[C@@H](CCCCNC(=O)[C@H](CCCCNC(=O)[C@H](CCCCNc1c(NCCCCCN(O)C(=O)CCC(=O)NCCCCCN(O)C(=O)CCC(=O)NCCCCCN(O)C(C)=O)c(=O)c1=O)Nc1c(NCCCCCN(O)C(=O)CCC(=O)NCCCCCN(O)C(=O)CCC(=O)NCCCCCN(O)C(C)=O)c(=O)c1=O)NC(=O)[C@H](CCCCNc1c(NCCCCCN(O)C(=O)CCC(=O)NCCCCCN(O)C(=O)CCC(=O)NCCCCCN(O)C(C)=O)c(=O)c1=O)Nc1c(NCCCCCN(O)C(=O)CCC(=O)NCCCCCN(O)C(=O)CCC(=O)NCCCCCN(O)C(C)=O)c(=O)c1=O)C(=O)O)C(C)C [zirconium-89 labelled] | ex vivo gamma counting | male Sprague-Dawley rats, blood | intravenous, 1 nmol, 24 h |  | tissue uptake | 0.423 %ID/g |
| CC1(C)[C@H](C=C(Cl)Cl)[C@H]1C(=O)OCc1cccc(Oc2ccccc2)c1 | item: CYP2C8 | human, age 1 year, recombinant human CYP2C8 | 0.1 µM |  | enzyme contribution to clearance | 0.04% |
| CC(C)C[C@H](NC(=O)[C@H](CCCCN)NC(=O)OCC1c2ccccc2-c2ccccc21)C(=O)N[C@H](C(=O)N[C@@H](Cc1ccccc1)C(=O)N[C@@H](Cc1ccccc1)C(=O)N[C@@H](CCCCN)C(=O)NCC(=O)N[C@@H](Cc1ccccc1)C(=O)N[C@@H](C)C(=O)N[C@@H](Cc1c[nH]c2ccccc12)C(=O)N[C@@H](CC(N)=O)C(=O)N[C@H](C(=O)N[C@H]1CSSC[C@@H](C(=O)N[C@@H](Cc2c[nH]cn2)C(=O)N[C@@H](CCCNC(=N)N)C(=O)N[C@@H](CCCNC(=N)N)C(=O)N[C@@H](C)C(=O)N[C@@H](CC(N)=O)C(N)=O)NC(=O)[C@H](C(C)C)NC(=O)[C@H](CCCNC(=N)N)NC(=O)[C@H](C(C)C)NC(=O)CNC(=O)[C@H](CC(N)=O)NC(=O)[C@H](CCCNC(=N)N)NC(=O)[C@H](Cc2ccc(O)cc2)NC(=O)[C@H](C(C)C)NC1=O)C(C)C)C(C)C |  | ICR mice, blood | intraductal mammary, 10 mg/kg, day 5 |  | monocytes | 3.36 ± 0.35% |
| CN(C(=O)n1cnc(-c2ccc[n+]([O-])c2)c1)C1CCCCC1 |  | Wistar rat, midbrain | oral, 10 mg/kg, 1 h, single dose |  | concentration | 368 ± 40.8 ng/g |
| CC(C)(c1ccccc1)c1cc(-n2nc3ccccc3n2)c(O)c(C(C)(C)c2ccccc2)c1 |  | human aged 21-60 years | concentration not given, foundation, 95th percentile |  | daily dermal exposure dose | 1.97 ng/kg/day |
| O=C(Nc1ccccc1)C1CCN(C(=O)Oc2cccnc2)CC1 | psychotropic effects VAS | healthy women | 100 mg | relative to: pre-dose baseline, direction not given | change in Surroundings score | 0.2 |
| C[C@]1(CO)Cc2ncn(-c3ccc(C#N)c(Cl)c3)c2C(=O)O1 | investigator-assessed | human, Chinese | 3 mg single dose |  | subjects with drug-related TEAEs | 16.7% |
| O=S(=O)(Nc1ccccc1)c1ccc(NC(=S)Nc2ccccc2)cc1 |  | male mouse, blood | oral, 80 mg/kg daily, 14 days |  | albumin level | 3.2 g/dL |
| CCC[C@@](N)(CO)CCc1ccc(OCCCCCC(C)C)cc1 |  | dog, male hounds, plasma | oral capsule, 5 mg/kg, median |  | Tmax | 3 h |
| CO[C@H]1C[C@@H]2CC[C@@H](C)[C@@](O)(O2)C(=O)C(=O)N2CCCC[C@H]2C(=O)O[C@H]([C@H](C)C[C@@H]2CC[C@@H](OC(=O)NCCOCCOCCOCCOCCOCCOCCOCCOCCC(=O)N3CCc4cc(Cn5nc(-c6ccc7oc(N)nc7c6)c6c(N)ncnc65)ccc4C3)[C@H](OC)C2)C[C@@H](O)[C@H](C)/C=C(\C)[C@@H](O)[C@@H](OC)C(=O)[C@H](C)C[C@H](C)/C=C/C=C/C=C/1C | phase 1 dose escalation, item: neutropenia | advanced solid tumour patients | intravenous, 8 mg weekly, grade ≥3 |  | dose-reducing adverse events | 0% |
| CC(=O)N(C)[C@H]1CCN(C(=O)c2cnc3c(c2)C[C@](C)(c2ccc(F)cc2)N3)C1 | item: diarrhoea | human | oral, dose not given, together with: midazolam |  | adverse event duration | 6 days |
| CC[C@H](C)[C@H](NC(=O)[C@H](CCCCN)NC(=O)[C@H](CCC(=O)O)NC(=O)[C@H](CCCCN)NC(=O)[C@H](CO)NC(=O)[C@H](CCCCN)NC(=O)[C@H](CCCNC(=N)N)NC(=O)[C@H](Cc1ccccc1)NC(=O)[C@H](Cc1ccccc1)NC(=O)[C@H](CC(=O)O)NC(=O)CNC(=O)[C@H](CC(C)C)NC(=O)[C@@H](N)CC(C)C)C(=O)NCC(=O)N[C@@H](CCCCN)C(=O)N[C@@H](CCC(=O)O)C(=O)N[C@@H](Cc1ccccc1)C(=O)N[C@@H](CCCCN)C(=O)N[C@@H](CCCNC(=N)N)C(=O)N[C@H](C(=O)N[C@H](C(=O)N[C@@H](CCC(N)=O)C(=O)N[C@@H](CCCNC(=N)N)C(=O)N[C@H](C(=O)N[C@@H](CCCCN)C(=O)N[C@@H](CC(=O)O)C(=O)N[C@@H](Cc1ccccc1)C(=O)N[C@@H](CC(C)C)C(=O)N[C@@H](CCCNC(=N)N)C(=O)N[C@@H](CC(N)=O)C(=O)N[C@@H](CC(C)C)C(=O)N[C@H](C(=O)N1CCC[C@H]1C(=O)N[C@@H](CCCNC(=N)N)C(=O)N[C@H](C(=O)N[C@@H](CCC(=O)O)C(=O)N[C@@H](CO)C(=O)O)[C@@H](C)O)C(C)C)[C@@H](C)CC)C(C)C)[C@@H](C)CC | LC-MS | buffer with human neutrophil elastase | 40 µM, 10 min, pH 7.5, 37 °C | relative to: 0 h | remaining intact peptide | 46.1% and 32.1% and 41.2% |
| N[C@@H]1c2ccccc2OC12CCN(c1cnc3c(N4CCCc5ncccc54)n[nH]c3n1)CC2 |  | advanced solid tumour patients | oral, 150 mg once daily |  | TEAE causing dose reduction | 25% |
| Cc1cc(Nc2ncc(Cl)c(Nc3ccccc3S(=O)(=O)C(C)C)n2)c(OC(C)C)cc1C1CCNCC1 |  | advanced solid tumour patients | oral, daily, together with: gemcitabine |  | MTD | 600 mg |
| CCNCCCNC/C=C\CNCCCNCC |  | human, advanced solid tumours | intravenous, dose not given | relative to: patients | drug-related TEAE, blood disorders | 19.6% |
